{"data": "Literature values that unrelated publications cite", "note": "Compare with care: the assays were run in different laboratories. ± gives the spread as reported."}
{"Structure (SMILES)": "Cc1cc(N)nc(C[C@@H]2CNC[C@@H]2OCCCCCc2ccccn2)c1", "target": "nNOS", "how to read": "reference: eNOS over nNOS", "endpoint": "selectivity ratio", "result": "2000 fold"}
{"Structure (SMILES)": "CCOC(=O)C(=O)Nc1c(NC[C@H](O)[C@H](O)[C@H](O)CO)[nH]c(=O)[nH]c1=O", "target": "Bacillus subtilis lumazine synthase", "system": "recombinant β60 capsid", "conditions": "pH 7.0, Tris·HCl buffer, added: 2 constant, 1 varied", "endpoint": "Ks", "result": "5.4 ± 0.5 µM"}
{"Structure (SMILES)": "O=C(O)C1Nc2c(O)cccc2C2C=CCC12 (stereo not shown)", "target": "PRC2-EZH2 wild type", "assay": "enzyme activity, inhibitor", "conditions": "concentration not given", "endpoint": "inhibition", "result": "inhibited"}
{"Structure (SMILES)": "c1ccc(CCCNc2ncnc3cc(OCC4CCN(CCNc5cccc6ccccc56)CC4)ccc23)cc1", "target": "human DNMT3A catalytic domain", "assay": "enzyme activity", "conditions": "32 µM", "endpoint": "inhibition", "result": "0%"}
{"Structure (SMILES)": "CCc1cc(O)cc2c(/C=N/NC(=N)NCCc3ccc(Cl)cc3)c[nH]c12", "target": "RXFP4", "assay": "agonist", "endpoint": "EC50", "result": "2 nM"}
{"Structure (SMILES)": "CNC(=O)c1ccccc1Oc1nc(Nc2cc(OC)c(OC)c(OC)c2)ncc1Br", "target": "MARK3", "conditions": "0.25 µM", "endpoint": "inhibition", "result": "> 40%"}
{"Structure (SMILES)": "COc1cc(OC)c(CN2CCN(C)CC2)c(O)c1/C=C/C(=O)c1cccc(Br)c1", "target": "beta-glucuronidase", "conditions": "10 µM", "endpoint": "inhibition", "result": "75%"}
{"Structure (SMILES)": "CC[C@H](C)[C@H](NC(=O)[C@H](CO)NC(=O)[C@H](CC(C)C)NC(=O)[C@@H]1CCCN1C(=O)[C@@H]1CCCN1C(=O)[C@H](CC(=O)O)NC(=O)[C@@H](N)CC(=O)O)C(=O)N[C@@H](CC(=O)O)C(=O)N[C@@H](CC(C)C)C(=O)N[C@H](C(=O)N[C@@H](Cc1ccccc1)C(=O)N[C@@H](Cc1c[nH]cn1)C(=O)N[C@@H](CC(C)C)C(=O)N[C@@H](CC(C)C)C(=O)N[C@@H](CCCNC(=N)N)C(=O)N[C@H](C(=O)N[C@@H](CC(C)C)C(=O)N[C@@H](CC(C)C)C(=O)N[C@@H](CCC(=O)O)C(=O)N[C@@H](CC(C)C)C(=O)N[C@@H](C)C(=O)N[C@@H](CCCNC(=N)N)C(=O)N[C@H](C(=O)N[C@@H](CCC(N)=O)C(=O)N[C@@H](CO)C(=O)N[C@@H](CCC(N)=O)C(=O)N[C@@H](CCCNC(=N)N)C(=O)N[C@@H](CCC(=O)O)C(=O)N[C@@H](CCCNC(=N)N)C(=O)N[C@@H](C)C(=O)N[C@@H](CCC(=O)O)C(=O)N[C@@H](CCC(N)=O)C(=O)N[C@@H](CC(N)=O)C(=O)N[C@@H](CCCNC(=N)N)C(=O)N[C@H](C(=O)N[C@H](C(=O)N[C@@H](Cc1ccccc1)C(=O)N[C@@H](CC(=O)O)C(=O)N[C@@H](CO)C(=O)N[C@H](C(N)=O)C(C)C)[C@@H](C)CC)[C@@H](C)CC)[C@@H](C)O)[C@@H](C)O)[C@@H](C)O", "target": "CRH receptor 1", "system": "CRH-R1-transfected cells", "endpoint": "EC50", "result": "1 to 3 nM"}
{"Structure (SMILES)": "CC(C)C(=O)Nc1c(NC[C@H](O)[C@H](O)[C@H](O)CO)[nH]c(=O)[nH]c1=O", "target": "Bacillus subtilis lumazine synthase", "assay": "uncompetitive inhibitor", "conditions": "pH 7.0", "endpoint": "Kis", "result": "64 ± 11 µM"}
{"Structure (SMILES)": "CC(C)[C@H](NC(=O)[C@@H]1CCCN1C(=O)[C@H](C)NC(=O)[C@H](CO)NC(=O)[C@H](C)NC(=O)[C@H](CC(N)=O)NC(=O)[C@H](CCC(=O)O)NC(=O)[C@@H](NC(=O)[C@H](CC(=O)O)NC(=O)[C@H](CCCCN)NC(=O)[C@H](C)NC(=O)[C@H](CCC(N)=O)NC(=O)[C@H](Cc1ccccc1)NC(=O)[C@H](C)NC(=O)[C@H](Cc1c[nH]c2ccccc12)NC(=O)[C@@H](NC(=O)[C@@H]1CCCN1C(=O)[C@@H](NC(=O)CN)C(C)C)C(C)C)C(C)C)C(=O)O", "target": "PCY1 peptide cyclase, Saponaria vaccaria", "assay": "macrocyclization, substrate", "endpoint": "turnover number", "result": "~1 h⁻¹"}
{"Structure (SMILES)": "CC(C)(Oc1ccc(CCOc2ccc(/N=N/c3ccccc3)cc2)cc1)C(=O)O", "target": "PPARγ", "assay": "agonist", "endpoint": "EC50", "result": "1400 nM"}
{"Structure (SMILES)": "CN1CCN(C(=O)C(C)(C)c2ccc(C(=O)Nc3cn4cc(-c5ccncc5)ccc4n3)cc2)CC1", "target": "CLK", "assay": "NanoBRET", "conditions": "concentration not given", "endpoint": "activity class", "result": "active"}
{"Structure (SMILES)": "CCCC/C(=C(\\c1ccccc1)c1ccc(S(C)(=O)=O)cc1)c1ccccc1", "target": "cyclooxygenase-2", "how to read": "reference: COX-1 IC50 over COX-2 IC50", "endpoint": "selectivity ratio", "result": "> 7140"}
{"Structure (SMILES)": "COc1ccc(C(OCCN2CCCC(C(=O)O)C2)(c2ccc(OC)cc2)c2ccc(OC)cc2)cc1 (stereo not shown)", "target": "GABA transporter GAT3 and GAT1", "how to read": "reference: GAT1 over GAT3 IC50", "endpoint": "selectivity ratio", "result": "15 to 40 fold"}
{"Structure (SMILES)": "COCCNc1oc(-c2ccc(N(C)Cc3ccc(Cl)cc3)cc2)nc1C#N", "target": "REV-ERB", "assay": "reporter gene, luciferase reporter", "endpoint": "EC50", "result": "2500 nM"}
{"Structure (SMILES)": "NC(=O)c1ccc[n+](C2OC(COP(=O)([O-])OP(=O)(O)OCC3OC(n4cnc5c(N)ncnc54)C(O)C3O)C(O)C2O)c1 (stereo not shown)", "target": "mitochondrial complex I flavin site", "endpoint": "dissociation rate constant", "result": "> 5000 s⁻¹"}
{"Structure (SMILES)": "COC(=O)[C@H](CC(C)C)NC(=O)[C@@H]1CCCN1C(=O)[C@@H](NC(=O)[C@H](CCC(=O)C=[N+]=[N-])NC(=O)OCc1ccccc1)C(C)C", "target": "transglutaminase 2", "assay": "TG activity", "system": "Q7 striatal cells", "conditions": "50 µM", "endpoint": "inhibition", "result": "75%"}
{"Structure (SMILES)": "C=CCC(=N)NCCC[C@H](N)C(=O)O", "target": "bovine eNOS", "conditions": "100 µM", "endpoint": "inhibition", "result": "45%"}
{"Structure (SMILES)": "Cc1ccc(-c2nc3ccc(NC(=O)CCl)cc3[nH]2)cc1", "target": "PDGFR-α and PDGFR-β", "assay": "inhibitor", "conditions": "concentration not given", "endpoint": "inhibition", "result": "42.7 to 52.6%"}
{"Structure (SMILES)": "Nc1nc(-c2ccc(NC(=O)c3cc(Cl)cc(Cl)c3)cc2)c[nH]1", "target": "colistin", "system": "Acinetobacter baumannii, AB5075", "conditions": "30 µM, added: colistin", "endpoint": "MIC", "result": "4 µg/mL"}
{"Structure (SMILES)": "Nc1c(SC[C@H](O)[C@H](O)[C@H](O)CO)[nH]c(=O)[nH]c1=O", "target": "Bacillus subtilis lumazine synthase", "system": "recombinant β60 capsid", "conditions": "pH 7.0, Tris·HCl buffer, added: 2 constant, 1 varied", "endpoint": "Ks", "result": "16 ± 2 µM"}
{"Structure (SMILES)": "CC(=O)N[C@H]1[C@@H](O)[C@H](O)[C@@H](CO)O[C@H]1O", "target": "Staphylococcus aureus NanK", "endpoint": "kcat", "result": "1680 min^–1"}
{"Structure (SMILES)": "C[C@H](NC(=O)[C@@H]1CCCN1C(=O)[C@@H]1CCCN1C(=O)[C@H](C)NC(=O)[C@@H](NC(=O)[C@H](CO)NC(=O)CNC(=O)[C@@H]1CCCN1C(=O)[C@H](C)NC(=O)[C@@H]1CCCN1C(=O)[C@@H](N)CCCNC(=N)N)[C@@H](C)O)C(=O)N[C@@H](Cc1c[nH]cn1)C(=O)NCC(=O)O", "target": "14 A monoclonal antibody", "assay": "SPR", "endpoint": "kon", "result": "12200 M⁻¹ s⁻¹"}
{"Structure (SMILES)": "Nc1ncnc(NCC2CCN(C(=O)C(O)CO)CC2)c1-c1ccc(Oc2ccccc2)cc1 (stereo not shown)", "target": "BTK", "conditions": "concentration not given", "endpoint": "activity", "result": "inactive"}
{"Structure (SMILES)": "CN(C(=O)c1ccccc1)c1ccc(C(O)(C(F)(F)F)C(F)(F)F)cc1", "target": "LXRβ", "assay": "agonist", "endpoint": "EC50", "result": "180 nM"}
{"Structure (SMILES)": "COc1cc(F)c(C(C)C)cc1C1=C(CN2C(=O)O[C@H](c3cc(C(F)(F)F)cc(C(F)(F)F)c3)[C@@H]2C)CC(C)(C)CC1", "target": "CETP", "system": "cynomolgus monkey", "conditions": "0.1 to 30 mg/kg, single dose", "endpoint": "duration of CETP inhibition", "result": "72 h"}
{"Structure (SMILES)": "O=C(Nc1ccccn1)[C@]12C[C@H]1/C(=N\\O)c1ccccc1O2", "target": "mGlu2, 3, 5, 6, 7, 8 receptors", "assay": "receptor activity", "endpoint": "activity", "result": "> 30 µM"}
{"Structure (SMILES)": "Cc1cc(C)c(S(=O)(=O)N(C)CC(=O)N(Cc2ccc(C3CCCCC3)cc2)c2ccc(C(=O)O)c(O)c2)c(C)c1", "target": "STAT5", "assay": "refers to: MYC, CCND1 mRNA", "conditions": "concentration not given", "endpoint": "concentration suppressing target genes", "result": "~40 µM"}
{"Structure (SMILES)": "CCc1ccc(CCNC(=O)c2c(O)c(O)cc3c(O)c(-c4c(C)cc5c(C(=O)NCCc6ccc(CC)cc6)c(O)c(O)cc5c4O)c(C)cc23)cc1", "target": "Bfl-1 (human)", "assay": "binding, fluorescence polarization", "conditions": "added: fluorescent BH3 Bid peptide", "endpoint": "IC50", "result": "~1000 nM"}
{"Structure (SMILES)": "COC(=O)CN(C/C=C/c1ccc(OC)c(OC)c1)Cc1ccc(F)cc1", "target": "none", "assay": "abscisic acid production", "system": "in planta", "how to read": "concentration inhibiting", "endpoint": "effective concentration", "result": "50 to 100 µM"}
{"Structure (SMILES)": "O=c1[nH]c(SC[C@H](O)[C@H](O)[C@H](O)CO)c([N+](=O)[O-])c(=O)[nH]1", "target": "Bacillus subtilis lumazine synthase", "assay": "enzyme kinetics", "system": "recombinant β60 capsid", "conditions": "pH 7.0, added: substrate 2 fixed, 1 varied", "endpoint": "kcat", "result": "0.0217 ± 0.00167 s⁻¹"}
{"Structure (SMILES)": "CC1(C)CC(=O)C2=C(C1)OC(N)=C(C#N)C2c1ccccc1 (stereo not shown)", "target": "calf thymus DNA", "endpoint": "DNA binding constant", "result": "500000 M⁻¹"}
{"Structure (SMILES)": "Nc1c2ncn3c2nc[n+]1[C@@H]1O[C@H](COP(=O)(O)OP(=O)([O-])OC[C@H]2O[C@@H]3C[C@@H]2O)[C@@H](O)[C@H]1O", "target": "cADPR receptor", "system": "permeabilised Jurkat T cells", "conditions": "concentration not given", "endpoint": "activity", "result": "inactive"}
{"Structure (SMILES)": "O=c1[nH]c(NC[C@H](O)[C@H](O)[C@H](O)CO)c([N+](=O)[O-])c(=O)[nH]1", "target": "Bacillus subtilis lumazine synthase", "assay": "enzyme kinetics", "system": "recombinant β60 capsid", "conditions": "pH 7.0, added: substrate 2 fixed, 1 varied", "endpoint": "kcat", "result": "0.02 ± 0.00167 s⁻¹"}
